Published values pooled from the literature.
Organism: Pseudomonas aeruginosa

SMILES | method | strain | matrix | time | temperature | notes | MIC
CCCCCCCC(=O)N[C@@H](CCN)C(=O)N[C@H](C(=O)N[C@@H](CCN)C(=O)N[C@H]1CCNC(=O)[C@H]([C@@H](C)O)NC(=O)[C@H](CCN)NC(=O)[C@H](CCN)NC(=O)[C@H](CC(C)C)NC(=O)[C@@H](Cc2cccc(F)c2)NC(=O)[C@H](CCN)NC1=O)[C@@H](C)O | broth microdilution | PAO1, colistin-susceptible | – | – | – | – | 0.25 to 0.5 mg/L
CC[C@H](C)[C@H](NC(=O)[C@@H](CCCNC(=N)N)NC(=O)[C@H](CCCNC(=N)N)NC(=O)[C@@H]1CCCN1C(=O)[C@@H]1CCCN1C(=O)[C@H](CCCNC(=N)N)NC(=O)[C@@H]1CCCN1C(=O)[C@H](CCCNC(=N)N)NC(=O)[C@@H]1CCCN1C(=O)[C@H](CC(C)C)NC(=O)[C@H](Cc1ccccc1)NC(=O)[C@@H]1CCCN1C(=O)[C@@H]1CCCN1C(=O)[C@H](CCCCN)NC(=O)[C@H](CC(=O)O)NC(=O)[C@@H](N)C(C)C)C(=O)N[C@@H](Cc1ccc(O)cc1)C(=O)N[C@@H](CC(N)=O)C(=O)N[C@H](CCCNC(=N)N)C(N)=O | broth microdilution | DSM 1117 | – | 18 h | 37 °C | 25% MHB2 | 128 mg/L
CC[C@H](C)[C@H](NC(=O)[C@H](CCCCN)NC(=O)[C@H](CCCNC(=N)N)NC(=O)[C@H](Cc1c[nH]c2ccccc12)NC(=O)[C@@H](NC(=O)[C@H](CC(N)=O)NC(=O)[C@H](CCCNC(=N)N)NC(=O)[C@@H](NC(=O)[C@H](CCCNC(=N)N)NC(=O)[C@H](CC(N)=O)NC(=O)[C@H](CCCNC(=N)N)NC(=O)[C@H](CC(C)C)NC(=O)[C@H](CCCNC(=N)N)NC(=O)[C@H](CCCNC(=N)N)NC(=O)[C@H](Cc1ccccc1)NC(=O)[C@H](CCCNC(=N)N)NC(=O)CN)[C@@H](C)CC)[C@@H](C)CC)C(=O)NCC(=O)N1CCC[C@H]1C(=O)N[C@H](C(=O)N[C@@H](C)C(=O)NCC(=O)N1CCC[C@H]1C(=O)N[C@@H](CC(C)C)C(=O)N[C@H](C(=O)N[C@@H](CO)C(=O)N[C@@H](CCCNC(=N)N)C(=O)N[C@@H](Cc1ccccc1)C(=O)NCC(=O)O)[C@@H](C)CC)[C@@H](C)CC | CLSI agar dilution | ATCC 27853 | – | 20 h | 37 °C | – | 16 mg/L
CC(C)C[C@@H]1NC(=O)[C@@H](CC(C)C)NC(=O)[C@H](CCN)NC(=O)[C@@H](NC(=O)[C@H](CCN)NC(=O)[C@@H](NC(=O)CN=[N+]=[N-])[C@@H](C)O)CCNC(=O)[C@H]([C@@H](C)O)NC(=O)[C@H](CCN)NC(=O)[C@H](CCN)NC1=O | broth microdilution | ATCC 13883 | cation-adjusted Mueller-Hinton broth | – | – | – | 32 µM
CC(C)C[C@@H]1NC(=O)[C@H](CCCCN)NC(=O)CNC(=O)[C@H]2CCCN2C(=O)[C@H](CCCCN)NC(=O)[C@H](CC(C)C)NC(=O)[C@H](CCCCN)NC(=O)C2CCC=CCCCC(NC(=O)[C@H](CCCCN)NC1=O)C(=O)N[C@@H](CCCCN)C(=O)NC(C(N)=O)CCCC=CCCC(N)C(=O)N[C@@H](CCCCN)C(=O)N2 (stereo partly shown) | broth microdilution | ATCC 9027 | Mueller-Hinton broth | 18 h | 37 °C | – | 64 µM
CN[C@H](CC(C)C)C(=O)N[C@H]1C(=O)N[C@@H](CC(N)=O)C(=O)N[C@H]2C(=O)N[C@H]3C(=O)N[C@H](C(=O)N[C@H](C(=O)N[C@@H](CCCNC(=N)N)C(N)=O)c4cc(O)cc(O)c4-c4cc3ccc4O)[C@H](O)c3ccc(c(Cl)c3)Oc3cc2cc(c3O[C@@H]2O[C@H](CO)[C@@H](O)[C@H](O)[C@H]2O[C@H]2C[C@](C)(NCc3ccc(OCc4cn(CC(=O)N[C@H](C(=O)N[C@@H](CCN)C(=O)N[C@H]5CCNC(=O)[C@H]([C@@H](C)O)NC(=O)[C@H](CCN)NC(=O)[C@H](CCN)NC(=O)[C@H](CC(C)C)NC(=O)[C@@H](CC(C)C)NC(=O)[C@H](CCN)NC5=O)[C@@H](C)O)nn4)c(OC)c3)[C@H](O)[C@H](C)O2)Oc2ccc(cc2Cl)[C@H]1O | broth microdilution | ATCC 17978 | cation-adjusted Mueller-Hinton broth | – | – | – | 46 µM
CC[C@H](C)[C@H](NC(=O)[C@H](C)NC(=O)[C@@H](NC(=O)[C@H](CC(=O)O)NC(=O)[C@H](CCCCN)NC(=O)[C@H](CO)NC(=O)[C@@H](NC(=O)[C@H](CC(N)=O)NC(=O)[C@H](C)NC(=O)[C@@H](NC(=O)[C@H](CCC(=O)O)NC(=O)[C@H](CCCCN)NC(=O)[C@@H](NC(=O)[C@@H](NC(=O)[C@H](Cc1c[nH]cn1)NC(=O)[C@H](CCCCN)NC(=O)[C@@H](NC(=O)[C@H](CCCCN)NC(=O)[C@H](CCCCN)NC(=O)[C@@H](NC(=O)[C@H](CC(C)C)NC(=O)[C@H](CCCCN)NC(=O)[C@H](CC(N)=O)NC(=O)[C@H](Cc1ccccc1)NC(=O)[C@H](CCCNC(=N)N)NC(=O)[C@H](CCCCN)NC(=O)[C@H](CCCNC(=N)N)NC(=O)[C@H](Cc1ccccc1)NC(=O)CN)C(C)C)C(C)C)[C@@H](C)O)[C@@H](C)CC)[C@@H](C)O)C(C)C)C(C)C)C(=O)N[C@H](C(=O)N[C@@H](C)C(=O)NCC(=O)N[C@@H](CO)C(=O)NCC(=O)N[C@H](C(=O)N[C@@H](C)C(=O)N[C@H](C(=O)NCC(=O)N[C@@H](C)C(=O)N[C@@H](C)C(=O)N[C@@H](CCSC)C(N)=O)C(C)C)C(C)C)C(C)C | – | ATCC 27853 | CAMHB with 10% mouse serum | – | – | 150 mM NaCl | 16 mg/L
CCn1c(-c2ccc(F)cc2)c(-c2ccc(F)cc2)n(Cc2ccccc2)c1=[Se] | broth microdilution | carbapenem-resistant BAA-2108 | – | 24 h | – | – | > 40 µM
CC(C)C[C@@H]1NC(=O)[C@@H](CC(C)C)NC(=O)[C@H](CCN)NC(=O)[C@@H](NC(=O)[C@H](CCN)NC(=O)[C@@H](NC(=O)CCOCCOCCOCCN=[N+]=[N-])[C@@H](C)O)CCNC(=O)[C@H]([C@@H](C)O)NC(=O)[C@H](CCN)NC(=O)[C@H](CCN)NC1=O | broth microdilution | ATCC 35218 | cation-adjusted Mueller-Hinton broth | – | – | – | 28 µM
CC[C@H](C)[C@H](NC(=O)[C@@H](CCCNC(=N)N)NC(=O)[C@H](CCCNC(=N)N)NC(=O)CNC(=O)[C@H](Cc1c[nH]c2ccccc12)NC(=O)[C@H](CCCNC(=N)N)NC(=O)[C@@H]1CCCN1C(=O)[C@H](CCCNC(=N)N)NC(=O)[C@@H]1CCCN1C(=O)[C@H](CC(C)C)NC(=O)[C@H](Cc1ccc(O)cc1)NC(=O)[C@@H]1CCCN1C(=O)[C@@H]1CCCN1C(=O)[C@H](CCCCN)NC(=O)[C@H](CC(=O)O)NC(=O)[C@@H](N)C(C)C)C(=O)N[C@@H](Cc1ccc(O)cc1)C(=O)N[C@@H](CC(N)=O)C(=O)N[C@H](CCCNC(=N)N)C(N)=O | broth microdilution | DSM 1117 | – | 18 h | 37 °C | 25% MHB2 | 64 mg/L
